Experimental data from different studies.
Compare with care: the assays were run in different laboratories. ± marks the error that the study gave.
B1: enzyme A172S/A173G/A497K/C179K/M174T/Q178P (Streptomyces platensis, UniProt A0A0A0V031); chain MQHTTIGDVLREHRRSHPGRTALVDGPVRLTWPELDDRVNRLAGSLAASGIGRGDRIMWLGQNSFRVYELIAAAGKLGAMVCVGYWRWAPPEMEFALRDFDPHLVVWQHQEIHETVARTREALGSDDTARWLRHDSAPQDPDGYEAFLAAGGLADPDLDIDPDSPVLVLYTSGTSGRPKGSLLSHTNLIAMATAAAWLGDIDHTTAFLNSGPMFHIGNHQFWGMPTLLMAGKNVIVRRVVAEEVRDLLVAEECTHAFLMPPTVAEIVRLNRDTGHDLSRLRATVAPHLWEGMATTDTSRFTRSGAAAGRGYGQTELSGFAVTAAYGGPAAGNAGRPGPGLTVRVLDTAGRECAVGEAGEICARGTVVHRGYWNRDEVNAHRFRSGWWHTTDLGRREPDGSLTFLGTTTRMLKSAAENIFPAEVENCIEQHPAVREAAVIGVPNTRWAQDVKAVVVLEPDAGVSEQEIIDHCRPRIASYKKPKSVAFAAALPRTVSGKRDYDALDKEYGGGGYPGAATLGPGR
B2: enzyme A172S/A173G/C179K/M174T/Q178P (Streptomyces platensis, UniProt A0A0A0V031); chain MQHTTIGDVLREHRRSHPGRTALVDGPVRLTWPELDDRVNRLAGSLAASGIGRGDRIMWLGQNSFRVYELIAAAGKLGAMVCVGYWRWAPPEMEFALRDFDPHLVVWQHQEIHETVARTREALGSDDTARWLRHDSAPQDPDGYEAFLAAGGLADPDLDIDPDSPVLVLYTSGTSGRPKGSLLSHTNLIAMATAAAWLGDIDHTTAFLNSGPMFHIGNHQFWGMPTLLMAGKNVIVRRVVAEEVRDLLVAEECTHAFLMPPTVAEIVRLNRDTGHDLSRLRATVAPHLWEGMATTDTSRFTRSGAAAGRGYGQTELSGFAVTAAYGGPAAGNAGRPGPGLTVRVLDTAGRECAVGEAGEICARGTVVHRGYWNRDEVNAHRFRSGWWHTTDLGRREPDGSLTFLGTTTRMLKSAAENIFPAEVENCIEQHPAVREAAVIGVPNTRWAQDVKAVVVLEPDAGVSEQEIIDHCRPRIASYKKPKSVAFAAALPRTVSGARDYDALDKEYGGGGYPGAATLGPGR
B3: PTPN2 (Homo sapiens, UniProt P17706); chain MPTTIEREFEELDTQRRWQPLYLEIRNESHDYPHRVAKFPENRNRNRYRDVSPYDHSRVKLQNAENDYINASLVDIEEAQRSYILTQGPLPNTCCHFWLMVWQQKTKAVVMLNRIVEKESVKCAQYWPTDDQEMLFKETGFSVKLLSEDVKSYYTVHLLQLENINSGETRTISHFHYTTWPDFGVPESPASFLNFLFKVRESGSLNPDHGPAVIHCSAGIGRSGTFSLVDTCLVLMEKGDDINIKQVLLNMRKYRMGLIQTPDQLRFSYMAIIEGAKCIKGDSSIQKRWKELSKEDLSPAFDHSPNKIMTEKYNGNRIGLEEEKLTGDRCTGLSSKMQDTM
Chain of UniProt P21729 (whole entry, looked up): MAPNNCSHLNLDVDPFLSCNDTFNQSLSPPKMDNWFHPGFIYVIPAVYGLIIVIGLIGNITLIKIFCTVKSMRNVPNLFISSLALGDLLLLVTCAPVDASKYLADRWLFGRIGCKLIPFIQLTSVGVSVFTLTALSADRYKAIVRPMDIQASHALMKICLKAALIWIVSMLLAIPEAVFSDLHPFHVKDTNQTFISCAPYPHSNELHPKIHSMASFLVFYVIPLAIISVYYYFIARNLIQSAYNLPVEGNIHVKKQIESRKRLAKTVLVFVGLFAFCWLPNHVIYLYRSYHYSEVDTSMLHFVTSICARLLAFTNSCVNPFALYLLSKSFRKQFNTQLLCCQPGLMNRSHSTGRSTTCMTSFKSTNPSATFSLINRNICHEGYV

| Molecule | tested on | assay | system | conditions | scale | endpoint | value |
| --- | --- | --- | --- | --- | --- | --- | --- |
| CC[C@@]1(O)C(=O)OCc2c1cc1n(c2=O)Cc2cc3cc(OC(=O)CCCC(=O)NCC(=O)N[C@@H](Cc4ccccc4)C(=O)N[C@@H](Cc4ccccc4)C(=O)N[C@@H](Cc4ccc(OP(=O)(O)O)cc4)C(=O)NCCSSCCNC(=O)CCC(=O)N[C@@H](CCC(=O)O)C(=O)N[C@@H](CCCNC(=N)N)C(=O)NCC(=O)N[C@@H](CC(=O)O)C(=O)O)ccc3nc2-1 | HepG2 | TEM | culture medium | 100 µM, 0.5 h |  | nanoparticle diameter | 50 to 100 nm |
| B1 | C[C@@]12CCC[C@@](C)(C(=O)OP(=O)(O)OC[C@H]3O[C@@H](n4cnc5c(N)ncnc54)[C@H](O)[C@@H]3O)[C@H]1C[C@@H](O)[C@]13C[C@H]4C[C@H](O[C@@]4(C)C1)[C@@H]23 | steady-state kinetics |  | pH 7.8, 25 °C |  | Vmax | 8.58 µmol/min |
| C=Cc1c(C)c2cc3nc(c4c5[nH]c(cc6nc(cc1[nH]2)C(C)=C6CC)c(C)c5C(=O)C4)[C@@H](CCC(=O)NCC(=O)N1CCC[C@H]1C(=O)N[C@@H](CC(C)C)C(=O)NCC(=O)N[C@@H](Cc1ccccc1)C(=O)N[C@@H](CCCNC(=N)N)C(=O)N[C@H](C(=O)NCC(=O)N[C@@H](CCCCN)C(N)=O)C(C)C)[C@@H]3C | OA patient synovial fibroblasts | flow cytometry, measured: cellular uptake |  | 1 µM, 24 h |  | fluorescent cells | 92 ± 5% |
| N=C(N)NCCC[C@@H]1NC(=O)[C@H](CCCCNC(=O)CC[C@H](NC(=O)CCOCCOCCOCCOCCNC(=O)CN2CCN(CC(=O)O)CCN(CC(=O)O)CCN(CC(=O)O)CC2)C(=O)NCCCC[C@@H]2NC(=O)[C@@H](Cc3ccccc3)NC(=O)[C@H](CC(=O)O)NC(=O)CNC(=O)[C@H](CCCNC(=N)N)NC2=O)NC(=O)[C@@H](Cc2ccccc2)NC(=O)[C@H](CC(=O)O)NC(=O)CNC1=O [indium-111 labelled] |  |  | female athymic nude mice, kidney | intravenous, 3 µCi, 24 h, U-87 MG glioma xenograft |  | tissue uptake | 2.79 ± 0.33 %ID/g |
| B2 | C[C@@]12CCC[C@@](C)(C(=O)OP(=O)(O)OC[C@H]3O[C@@H](n4cnc5c(N)ncnc54)[C@H](O)[C@@H]3O)[C@H]1C[C@@H](O)[C@]13C[C@H]4C[C@H](O[C@@]4(C)C1)[C@@H]23 | steady-state kinetics |  | pH 7.8, 25 °C |  | Km | 0.58 µM |
| N=C(N)NCCC[C@@H]1NC(=O)[C@H](CCCCNC(=O)CCOCCOCCOCCOCCNC(=O)CC[C@H](NC(=O)CCOCCOCCOCCOCCNC(=O)CC[C@H](NC(=O)CN2CCN(CC(=O)O)CCN(CC(=O)O)CCN(CC(=O)O)CC2)C(=O)NCCOCCOCCOCCOCCC(=O)N[C@@H](CCC(=O)NCCOCCOCCOCCOCCC(=O)NCCCC[C@@H]2NC(=O)[C@@H](Cc3ccccc3)NC(=O)[C@H](CC(=O)O)NC(=O)CNC(=O)[C@H](CCCNC(=N)N)NC2=O)C(=O)NCCOCCOCCOCCOCCC(=O)NCCCC[C@@H]2NC(=O)[C@@H](Cc3ccccc3)NC(=O)[C@H](CC(=O)O)NC(=O)CNC(=O)[C@H](CCCNC(=N)N)NC2=O)C(=O)NCCOCCOCCOCCOCCC(=O)NCCCC[C@@H]2NC(=O)[C@@H](Cc3ccccc3)NC(=O)[C@H](CC(=O)O)NC(=O)CNC(=O)[C@H](CCCNC(=N)N)NC2=O)NC(=O)[C@@H](Cc2ccccc2)NC(=O)[C@H](CC(=O)O)NC(=O)CNC1=O [indium-111 labelled] |  |  | female athymic nude mice, kidney | intravenous, 3 µCi, 24 h, U-87 MG glioma xenograft |  | tissue uptake | 4.27 ± 0.22 %ID/g |
| B3 (PTPN2) | CCCC[C@H](NC(=O)[C@H](CC(=O)O)NC(=O)[C@H](CC(=O)O)NC(=O)[C@H](CCC(=O)O)NC(=O)[C@H](Cc1ccc(OP(=O)(O)O)cc1)NC(=O)[C@H](CC(=O)O)NC(=O)[C@H](CC(=O)O)NC(=O)[C@H](CCC(=O)O)NC(=O)[C@H](CC(C)C)NC(=O)[C@H](CCC(=O)O)NC(=O)[C@H](CCC(=O)O)NC(=O)c1ccc2c(c1)C1(OC2=O)c2ccc(O)cc2Oc2cc(O)ccc21)C(=O)N[C@@H](CCC(=O)O)C(=O)N[C@@H](CCC(=O)O)C(N)=O | steady-state kinetics |  | 21 °C |  | Vmax | 186000 µM/min/mg |
| O=C(O)C[C@H](NC(=O)[C@H](CO)NC(=O)[C@H](CO)NC(=O)[C@H](CC(=O)O)NC(=O)[C@H](CO)NC(=O)C1=CO[C@@H](O[C@@H]2O[C@H](CO)[C@@H](O)[C@H](O)[C@H]2O)[C@@H]2C(CO)=CC[C@H]12)C(=O)O | mouse primary osteoblasts | CCK-8 |  | up to 10 µM, 48 h |  | viability | ~90% |
| CCCC[C@H](NC(=O)CNC(=O)CNC(=O)c1ccc(NN)nc1)C(=O)N[C@H]1CC(=O)NCCCC[C@@H](C(N)=O)NC(=O)[C@H](Cc2c[nH]c3ccccc23)NC(=O)[C@H](CCCNC(=N)N)NC(=O)[C@@H](Cc2ccccc2)NC(=O)[C@H](Cc2c[nH]cn2)NC1=O [technetium-99m labelled] |  |  | C57 mouse, B16/F1 melanoma | 2 h, together with: NDP-MSH blockade | relative to: tumour over kidney | uptake ratio | 0.06 |
| N=C(N)NCCC[C@@H]1NC(=O)[C@H](CCCCNC(=O)CNC(=O)CNC(=O)CNC(=O)CC[C@H](NC(=O)CCOCCOCCOCCOCCNC(=O)CC[C@H](NC(=O)CN2CCN(CC(=O)O)CCN(CC(=O)O)CCN(CC(=O)O)CC2)C(=O)NCCOCCOCCOCCOCCC(=O)N[C@@H](CCC(=O)NCC(=O)NCC(=O)NCC(=O)NCCCC[C@@H]2NC(=O)[C@@H](Cc3ccccc3)NC(=O)[C@H](CC(=O)O)NC(=O)CNC(=O)[C@H](CCCNC(=N)N)NC2=O)C(=O)NCC(=O)NCC(=O)NCC(=O)NCCCC[C@@H]2NC(=O)[C@@H](Cc3ccccc3)NC(=O)[C@H](CC(=O)O)NC(=O)CNC(=O)[C@H](CCCNC(=N)N)NC2=O)C(=O)NCC(=O)NCC(=O)NCC(=O)NCCCC[C@@H]2NC(=O)[C@@H](Cc3ccccc3)NC(=O)[C@H](CC(=O)O)NC(=O)CNC(=O)[C@H](CCCNC(=N)N)NC2=O)NC(=O)[C@@H](Cc2ccccc2)NC(=O)[C@H](CC(=O)O)NC(=O)CNC1=O [indium-111 labelled] |  |  | female athymic nude mice, lungs | intravenous, 3 µCi, 24 h, U-87 MG glioma xenograft |  | tissue uptake | 1.04 ± 0.04 %ID/g |
| CCCNC(=O)[C@H](CC(C)C)NC(=O)[C@H](Cc1c[nH]cn1)NC(=O)CNC(=O)[C@@H](NC(=O)[C@H](C)NC(=O)[C@H](Cc1c[nH]c2ccccc12)NC(=O)[C@H](CCC(N)=O)NC(=O)[C@@H](Cc1ccccc1)NC(=O)CCCCCNC(=O)CN1CCN(CC(=O)O)CCN(CC(=O)O)CCN(CC(=O)O)CC1)C(C)C [indium-111 labelled] | Gastrin-releasing peptide receptor (Mus musculus, UniProt P21729) | biodistribution | CF-1 mice, stomach | intravenous, 1 h, unblocked |  | tissue uptake | 0.38 ± 0.07 %ID/g |
